Measurements gathered from unrelated publications.
Every numbered part comes from another study and shows a few of its results, in no order.

Sample 1
Target: Histone acetyltransferase KAT6A, winged helix 2, GST fusion (KAT6A, Homo sapiens, UniProt Q92794, residues 85-181)
Method: protein binding microarray
Molecule type: double-stranded DNA, one strand shown
Matrix: in vitro
Concentration: not given
Setting: 8-mer, flanks averaged, mean of 2 arrays, mostly near background
Relative to: not given
Direction: higher = stronger binding
Construct (chain): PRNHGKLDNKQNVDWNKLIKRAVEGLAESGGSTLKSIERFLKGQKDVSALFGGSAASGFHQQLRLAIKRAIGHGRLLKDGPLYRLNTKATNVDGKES
`CCCGAGAA` gave an E-score of 0.153.
`ACTCGGCT` has an E-score of -0.0428.
For `AACAAGCA`, the E-score was -0.0311.
`AGTTGGTC` has an E-score of -0.0721.
The E-score of `CCTATTCC` is reported as -0.129.
For `ATCTCTGG`, the E-score was 0.101.
The E-score of `AGCATCGA` is reported as 0.0761.
With `CACCTAGC` the E-score was -0.125.
With `CTGGTACC` the E-score was -0.0146.
`AGTAAAAT` gave an E-score of 0.198.
For `AATCTGCT`, the E-score was 0.118.
`CTAAGATA` gave an E-score of -0.129.
With `CAATCTGA` the E-score was 0.0356.
For `AATATAGT`, the E-score was 0.000435.
The E-score of `AAGGCAGT` is reported as -0.00995.
`ACTTCCCT` has an E-score of -0.107.
`AGCTGGCA` gave an E-score of 0.0642.
`AGCCTGTC` has an E-score of 0.0249.
With `CACAATCG` the E-score was 0.0847.

Sample 2
Target: Sal-like protein 4, full length isoform B (SALL4, Homo sapiens, UniProt Q9UJQ4-2, residues 1-616)
Method: universal PBM
Molecule type: double-stranded DNA, one strand shown
Matrix: in vitro
Concentration: not given
Setting: 8-mer, flanks averaged, mean of replicates
Direction: higher = stronger binding
`CGGAACAC` has an E-score of -0.0649.
`CAGTGGTC` gave an E-score of -0.2.
The E-score of `CCAAAAGC` is reported as -0.162.
The E-score of `AACCTCGC` is reported as -0.19.
For `GCCCCATA`, the E-score was -0.124.
`AGAGTAGC` has an E-score of -0.154.
`ACGGACCC` gave an E-score of -0.284.
`AATCGATT` gave an E-score of 0.149.
`CGGAGCCG` has an E-score of -0.345.
For `ATTTTAAG`, the E-score was 0.294.
The E-score of `ATAAGAGC` is reported as 0.172.
The E-score of `CCAATCGC` is reported as -0.0954.
The E-score of `ATTTTCGG` is reported as 0.149.
`CAATGAGG` has an E-score of -0.125.
For `AAAGCAGA`, the E-score was 0.0628.
With `GGCCAAAC` the E-score was -0.269.
The E-score of `CTTCCGTC` is reported as -0.187.
With `AATCCAGT` the E-score was -0.0334.
For `GCGAGAAC`, the E-score was -0.173.

Sample 3
Target: TAR DNA-binding protein 43, full length, His tag (TARDBP, Homo sapiens, UniProt Q13148, residues 1-414)
Method: RNA Bind-n-Seq
Molecule type: RNA
Matrix: in vitro
Concentration: 20 nM
Setting: 6-mer, flanks averaged, single round
Together with: 150 mM KCl
Relative to: input library
Direction: higher = stronger binding
`CCGCGC`: “6-mer enrichment (R)” 0.829.
Under “6-mer enrichment (R)”, `GUACCC` is recorded as 0.681.
`AGAGUC`: “6-mer enrichment (R)” 0.739.
`GGGUCU` — result for “6-mer enrichment (R)”: 1.76.
For `GUUACC`, “6-mer enrichment (R)” read 0.643.
For `CUCGAU`, “6-mer enrichment (R)” read 0.56.
For `AAAAUA`, “6-mer enrichment (R)” read 0.716.
`CUACGU` — result for “6-mer enrichment (R)”: 0.625.
`ACACAA`: “6-mer enrichment (R)” 0.703.
For `CGGGGA`, “6-mer enrichment (R)” read 3.87.
`CUUUAA` — result for “6-mer enrichment (R)”: 0.588.
`GAGUCA`: “6-mer enrichment (R)” 0.857.
For `UCGGUA`, “6-mer enrichment (R)” read 0.74.
`GCGUUU`: “6-mer enrichment (R)” 0.809.
For `UCUAAC`, “6-mer enrichment (R)” read 0.566.
`CAUCAC` — result for “6-mer enrichment (R)”: 0.595.
For `UCGAUC`, “6-mer enrichment (R)” read 0.56.
For `CGCUGC`, “6-mer enrichment (R)” read 0.791.
Under “6-mer enrichment (R)”, `GAAGAU` is recorded as 0.835.
For `AAAAAA`, “6-mer enrichment (R)” read 0.928.
Under “6-mer enrichment (R)”, `AGAUCG` is recorded as 0.822.
Under “6-mer enrichment (R)”, `CGAUCA` is recorded as 0.6.
Under “6-mer enrichment (R)”, `AAAUUC` is recorded as 0.576.
`ACAUCG`: “6-mer enrichment (R)” 0.641.
`UAUCGG`: “6-mer enrichment (R)” 0.866.

Sample 4
Target: RING finger protein unkempt homolog, zinc fingers 1-6, GST-SBP tag (UNK, Homo sapiens, UniProt Q9C0B0, residues 30-357)
Sequence of UniProt Q9C0B0 (30-357, looked up): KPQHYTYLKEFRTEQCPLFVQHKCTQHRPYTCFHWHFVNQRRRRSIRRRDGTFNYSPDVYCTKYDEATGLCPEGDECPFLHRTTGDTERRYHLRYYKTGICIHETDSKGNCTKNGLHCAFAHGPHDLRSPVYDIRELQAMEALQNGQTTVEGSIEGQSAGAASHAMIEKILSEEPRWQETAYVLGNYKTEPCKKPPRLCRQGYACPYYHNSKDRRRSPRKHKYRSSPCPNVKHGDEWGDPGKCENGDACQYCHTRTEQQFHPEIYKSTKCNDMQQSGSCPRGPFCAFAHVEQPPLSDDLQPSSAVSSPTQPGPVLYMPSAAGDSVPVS
Method: RNA Bind-n-Seq
Molecule type: RNA
Matrix: in vitro
Concentration: not given
Setting: RNA with constant flanks, human-mouse chimeric sites, ends assumed
Relative to: input RNA pool
Direction: higher = stronger binding
Constant ends, left off below: GGGAGUUCUACAGUCCGACGAUC … CAACAGAGGAUUGAGCAUCA
`ACACAAUAUGAGACCAACAGCAUGGACUUCAAAGUCGGGGCAGAUGGGACAGUCUUCGCCACCCGGGAGCUGCAGGUCCCCUCCGAGCAGGUGGCGUUCACGGUGACUGCAUGGGACAGC` has a bound/input enrichment of 0.247 ratio.
With `AAUUUCCGCAACUGUUUUUUAGACAUUCACAUCAGACUUACAGAGCACCUGGCCACAUUCUAGUUUUGUGUUAUUUCUCAGCUAUGGAUAUGAUCAAAUGAGAACACUGCUUAACUAAUG` the bound/input enrichment was 0.604 ratio.
`ACCUCCCCCUCCCGCCUCACCCCACCCAAGAAAGAAAGAAAGUUUUUGGCGUUUCUUUUUUUUAGAAAUACAAAGUGAUUACAGUUUCCCCCGCAAGGGUCUAUCGAAGGGCUUGACGGA` has a bound/input enrichment of 0.881 ratio.
`CUGGCCUGGCCCUCCCCAGGGGCCUCCUUUCGUAUAGUCACUGCUUCUGCAUCAGAUACUUUCAGCUGCAACUCCCUACUGGGUGGGGCACCUAUCUCAGGCAGAAGUUGGUGCCCCCCU` gave a bound/input enrichment of 0.145 ratio.
`GAUAAGAAAAACUUGUUGGAGACCCGCUUGCAUGUCACUGGUAGAGACCUGAGGUGUCAAAUAGCUGAAACUUUCGGAUUUCAAGAAAAUUACAUCAAGAUCGUAAUAAAUAAGAAACAG` has a bound/input enrichment of 0.29 ratio.
For `GAUCAUGAACCACCAUCAGAAAUGAAGGAUGAGACUACCAGACGAGCCAAAACAGCUGCGCUACAGAAAAGUAAACUUAACCUUGCAGAGUUCCUUAAAUGAAGAUCAAGUUAAGAGAGC`, the bound/input enrichment was 0.277 ratio.
`GGACAUCUUGUCAGGAUUUAUGUUCCUGUGAAACAAGUGAACACUCUGAUACACUUCAUCUGCUUGUACAUCUGUAUGAUAGAGAAAUGUAAAUAUGUUAAUCCAAGCAAUGUGUCACUU` gave a bound/input enrichment of 0.183 ratio.
`CACACACUCUUCUGCGGGACCCUCAUCUUGCAGGCCCGAGCCUACGUGGGACCGCACGUCCUGGCAGUGGUGACCCGCACAGGGUUCUGCACAGCCAAAGGGGGCCUGGUGAGCUCCAUC` gave a bound/input enrichment of 0.0856 ratio.

Sample 5
Target: RNA binding protein fox-1 homolog 2, RRM domain, GST-SBP tag (RBFOX2, Homo sapiens, UniProt O43251-10, residues 100-194)
Method: RNA Bind-n-Seq
Molecule type: RNA
Matrix: in vitro
Concentration: 365 nM
Setting: natural RNA segment, single round, ends assumed
Relative to: no-protein control
Direction: higher = stronger binding
Constant ends, left off below: GGGAGUUCUACAGUCCGACGAUC … UGGAAUUCUCGGGUGCCAA
Construct (chain): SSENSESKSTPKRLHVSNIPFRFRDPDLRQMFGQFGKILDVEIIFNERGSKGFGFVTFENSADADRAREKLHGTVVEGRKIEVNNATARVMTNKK
Under “RBNS enrichment (R)”, `GGAGGGAUCUGAGCGCAGGAAGACGCAGAACAACAGAAAUAGCCGCCCCUCCCCGCCCACUGUGCCUGUUGGCCUAUCAUAGAUCUCUAUGUUCUUGACUUUGUCUCUCC` is recorded as 0.364.
Under “RBNS enrichment (R)”, `GUCUGAUUGUACCCUGGUGGCAUGAUCAGUUGUCUUGUAGCUGUCCCCCGCUCCAUAGUUUACAAUGCAAAUCUGUCUCAAGAUCUUCACUUCGCUGCUGCUGAGAGCAG` is recorded as 0.93.
For `UUACUGGAAGGACAGGUUAACUGAAUGUCUGUGAUCACUAACAGGUGAUGGGCUUUGUGCCCACUCCAGAGAUAUUGUGGGAGACAAAUUCUUUUAACAGCCUGUCCUCC`, “RBNS enrichment (R)” read 0.325.
Under “RBNS enrichment (R)”, `ACUUCACUGUCCCUGAUAUCUGGAGGUGAGAUGGCAGAGAGGGGCACCAGUGGAGCCAGGAUUGGGGCCUAGGGAAGCCCCCAAUGGUUCUGGAGGCAGGGAUAAGUGUG` is recorded as 0.814.
`UGGAUUACAUUCAUUUCCUGGGAAAGCUAGCUUACCAUACAUUCAAGUUUAUAAAACAAUUUGCCAUAGGCAAAGCCAUUUAAAAAGUUCAUUCUGAAAUUAUUUCAUUU` — result for “RBNS enrichment (R)”: 0.528.
`CUAUAAAGAAAUACAGUUAAUAACAAGGUUUCAAAUUAUUCCUUUAACAUUAAUAGAACAAUCCAAAUGUUGAGCAUAUUUUGAUAUUAAACUAAAGAUCACGUCUCUGU`: “RBNS enrichment (R)” 0.412.
`AUAGAAUUUCUCCAUUGAUGAAUCUCUAGUAUGUGUGUAUACUUUAUUUACCCAUACGUAUAUUUUAUGACCAUGAGCUAAGUUGUUAUUUCUUUCAUUCAUAUCCCUGC`: “RBNS enrichment (R)” 0.835.
For `GGGCAGCAGCAGGAGGAAUACCAGGGCCACGGAGGGGCCAGGAGUCUCACAGUGGAGGGCAGACUCUAACAGAUGCCAGCUGAACGCUCGCUGGCCCUGGAUGUCAUACG`, “RBNS enrichment (R)” read 1.1.
